Published values pooled from the literature.
Each numbered part is a random draw from the data of one study; scales do not carry over between parts.

Block 1
Target: Sal-like protein 4, full length isoform A (SALL4, Homo sapiens, UniProt Q9UJQ4, residues 1-1053)
UniProt Q9UJQ4, sequence (whole entry, looked up): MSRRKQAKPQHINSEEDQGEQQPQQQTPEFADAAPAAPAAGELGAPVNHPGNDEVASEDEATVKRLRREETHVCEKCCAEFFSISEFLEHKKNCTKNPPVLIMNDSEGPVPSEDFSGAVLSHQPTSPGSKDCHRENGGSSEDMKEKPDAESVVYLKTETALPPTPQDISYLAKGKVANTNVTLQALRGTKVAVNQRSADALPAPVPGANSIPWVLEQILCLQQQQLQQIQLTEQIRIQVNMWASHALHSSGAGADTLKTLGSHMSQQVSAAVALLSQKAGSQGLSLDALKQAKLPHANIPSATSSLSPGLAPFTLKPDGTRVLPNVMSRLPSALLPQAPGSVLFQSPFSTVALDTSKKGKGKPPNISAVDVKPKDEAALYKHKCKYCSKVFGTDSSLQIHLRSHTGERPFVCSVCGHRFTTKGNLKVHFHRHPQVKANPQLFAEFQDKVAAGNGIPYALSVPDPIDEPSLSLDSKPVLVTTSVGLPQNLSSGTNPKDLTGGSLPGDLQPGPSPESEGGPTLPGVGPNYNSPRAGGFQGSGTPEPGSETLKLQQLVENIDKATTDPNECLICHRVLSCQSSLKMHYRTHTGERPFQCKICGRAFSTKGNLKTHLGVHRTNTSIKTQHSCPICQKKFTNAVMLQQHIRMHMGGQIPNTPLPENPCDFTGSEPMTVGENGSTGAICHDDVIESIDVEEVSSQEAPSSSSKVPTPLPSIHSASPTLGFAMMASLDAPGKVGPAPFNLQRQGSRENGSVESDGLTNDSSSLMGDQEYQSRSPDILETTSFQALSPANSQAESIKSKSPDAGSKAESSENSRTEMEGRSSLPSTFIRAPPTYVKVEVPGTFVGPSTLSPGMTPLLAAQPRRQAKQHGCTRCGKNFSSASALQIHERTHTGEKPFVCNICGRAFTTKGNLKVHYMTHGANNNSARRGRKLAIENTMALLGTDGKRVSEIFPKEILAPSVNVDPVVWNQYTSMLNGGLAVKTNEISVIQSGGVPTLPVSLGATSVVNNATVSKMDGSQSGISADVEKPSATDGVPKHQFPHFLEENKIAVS
Method: universal PBM
Molecule type: double-stranded DNA, one strand shown
Sample: in vitro
Concentration: 600 nM
Setting: 8-mer, flanks averaged, mean of replicates
Reading: higher = stronger binding
Sequence | E-score
CTTCTACC | -0.172
AACCCCTA | -0.26
GCGTTTGA | -0.0266
CCCAGAGA | -0.191
AGAGTAGC | -0.196
AGTGGCGA | -0.0302
ATTTAGGC | 0.0693
AAAACTTG | 0.257
CCTGAATA | 0.0249
CGAACTTC | -0.0148

Block 2
Target: Interferon regulatory factor 7, full length, phosphomimetic (IRF7, Homo sapiens, UniProt Q92985, residues 1-503, S471D/S472D/S475D/S476D/S477D/S483D/S484D/S487D)
Method: protein-binding microarray
Molecule type: double-stranded DNA, one strand shown
Sample: in vitro
Concentration: 2200 nM top
Setting: 60-bp whole probe
With: salmon DNA 0.4 mg/ml
Baseline: random background probes
Reading: higher = stronger binding
Constant ends, left off below: GCCTAGCAC … GTCTTGATTCGCTTGACGCTGCTG
Construct (chain): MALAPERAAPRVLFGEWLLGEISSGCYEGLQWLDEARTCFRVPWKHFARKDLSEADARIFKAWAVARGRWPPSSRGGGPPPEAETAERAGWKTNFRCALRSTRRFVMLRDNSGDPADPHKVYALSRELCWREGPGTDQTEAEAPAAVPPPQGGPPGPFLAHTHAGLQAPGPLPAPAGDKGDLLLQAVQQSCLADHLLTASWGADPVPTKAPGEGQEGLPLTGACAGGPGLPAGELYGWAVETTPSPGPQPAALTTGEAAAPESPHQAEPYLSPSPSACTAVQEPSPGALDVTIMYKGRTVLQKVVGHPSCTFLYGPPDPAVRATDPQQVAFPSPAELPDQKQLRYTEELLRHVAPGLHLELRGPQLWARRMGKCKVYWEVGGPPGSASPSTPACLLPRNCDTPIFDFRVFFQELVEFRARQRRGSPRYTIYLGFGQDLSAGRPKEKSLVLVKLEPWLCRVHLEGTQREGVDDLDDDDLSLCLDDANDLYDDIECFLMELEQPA
Sequence | fitted relative affinity [z-score]
TATGGTATTTTTTTCTAATTGTGCTAG | 1.79
GAGGGACTGCTTCTCCTGACGTGCTAG | 0.0947
TCAAGTTTCTCCTTTCGACTGTGCTAG | 3.84
ATCTTTTTCCTAATTGAACCGTGCTAG | 1.67
TTAGGTAGCGACACTGGGTTAGTGCTA | -0.74
GACGGACTGCTATTCCTGACGTGCTAG | 0.435
GACGCACTGGACACTGGGGACGTGCTA | -0.479
GACGGTTTCGACTTTCCGGACGTGCTA | 7.72
TTAGAACTGAGTATCGATTTGTGCTAG | 0.4
TTACAACTGAGACTGGATTAGTGCTAG | 0.0423

Block 3
Target: Phosphate system positive regulatory protein PHO4, full length, GST-tagged (PHO4, Saccharomyces cerevisiae, UniProt P07270, residues 1-312)
Method: competition protein-binding microarray
Molecule type: double-stranded DNA, one strand shown
Sample: in vitro
Concentration: 2 µM
Setting: whole 60-bp probe, lowest competitor level
With: Cbf1 competitor, 0.05 µM
Reading: higher = stronger binding
Constant ends, left off below: … GTCTTGATTCGCTTGACGCTGCTG
Construct (chain): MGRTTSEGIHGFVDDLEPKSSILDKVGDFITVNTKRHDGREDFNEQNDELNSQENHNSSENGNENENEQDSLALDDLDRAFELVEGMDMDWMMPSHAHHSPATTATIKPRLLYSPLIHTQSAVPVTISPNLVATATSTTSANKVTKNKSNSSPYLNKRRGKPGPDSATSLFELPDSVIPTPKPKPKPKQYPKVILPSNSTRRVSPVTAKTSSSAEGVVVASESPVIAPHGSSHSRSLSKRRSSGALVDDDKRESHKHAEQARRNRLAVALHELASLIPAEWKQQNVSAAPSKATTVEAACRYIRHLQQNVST
Sequence | fluorescence intensity [a.u.]
CATACCCAACCTTGATCCGTGGGTGAAGATATTTGT | 5150
CGTCCTAGTGATTGCGAGGTGGGTGCCATGAGGAAG | 8120
GAGACGAATGAAAAGCACGTGAAGTAACAAACTATT | 14800
CATACCCAACCTTGATCTGTGGGTGAAGATATTTGT | 4220
TTTCAGGCAAGCTGGCAGGTGACGCTCCGCACCTTC | 3280
TACAGAGGAGATAAAGGCGTGCCAGCAATTGAAGAG | 9210
GACAGGAACTGCTGTCATATGAAAACCTAAAAATGT | 3390
AAAGCAGCTTCGGGGTGCGTGATGGAAAAATGCGAC | 7140
TGCGCAACAACTTGCCGTGTGGGTGTATGTCTAGAA | 6150
CATACCCAACCTTGCATAGTGGGTGAAGATATTTGT | 5220
TCTGTGCTGTTCAATAACGTGGAATCCATTTTTGCT | 7400
GTCTTGTCTCATTGTCACTCCACTTTCCCCACTTCA | 4310
CTCCTGGCTGCCTGCCTCGTGGTGGTCAATTCGCTG | 11100
ATTCACCAATTCCGTCACACTCAGCTAACTTCTCCT | 4710
CTAACGAAGGTTTGAGAGGTGGGTGACAAGCCAAGT | 3550
ACCTTGGTCCAAGGTCACGAGGAGCTGTCCAAGGTC | 7190

Block 4
Target: Prothrombin, mature alpha-thrombin (F2, Homo sapiens, UniProt P00734)
Method: aptamer microarray, sandwich
Molecule type: DNA with 2'F-ANA
Sample: in vitro
Concentration: 200 nM
Setting: whole 15-mer aptamer, many near background
With: Cy3 exosite-II aptamer, 400 nM
Reading: higher = stronger binding
Sequence: GGTTGGTGTGGTTGG
Modification | mean fluorescence intensity [a.u.]
2'F-ANA at 1 3 4 5 6 7 8 10 12 13 14 | 49.5
2'F-ANA at 2 3 5 8 10 13 | 60.7
2'F-ANA at 4 5 11 12 13 | 85.6
2'F-ANA at 2 3 4 8 9 10 11 13 14 15 | 147
2'F-ANA at 4 9 11 14 | 257
2'F-ANA at 2 4 7 8 12 14 15 | 186
2'F-ANA at 2 6 7 8 10 11 | 106
2'F-ANA at 3 7 8 11 12 | 1360
2'F-ANA at 1 5 6 7 10 12 13 | 44.8
2'F-ANA at 2 3 5 7 9 12 13 14 | 60.8
2'F-ANA at 1 3 5 8 9 | 66.8
2'F-ANA at 2 3 6 8 11 13 | 646
2'F-ANA at 1 2 4 6 7 8 10 11 12 14 | 46.7
2'F-ANA at 3 6 11 12 15 | 1110
2'F-ANA at 5 8 10 11 14 | 42.1

Block 5
Target: RING finger protein unkempt homolog, zinc fingers 1-6, GST-SBP tag (UNK, Homo sapiens, UniProt Q9C0B0, residues 30-357)
UniProt Q9C0B0, sequence (30-357, looked up): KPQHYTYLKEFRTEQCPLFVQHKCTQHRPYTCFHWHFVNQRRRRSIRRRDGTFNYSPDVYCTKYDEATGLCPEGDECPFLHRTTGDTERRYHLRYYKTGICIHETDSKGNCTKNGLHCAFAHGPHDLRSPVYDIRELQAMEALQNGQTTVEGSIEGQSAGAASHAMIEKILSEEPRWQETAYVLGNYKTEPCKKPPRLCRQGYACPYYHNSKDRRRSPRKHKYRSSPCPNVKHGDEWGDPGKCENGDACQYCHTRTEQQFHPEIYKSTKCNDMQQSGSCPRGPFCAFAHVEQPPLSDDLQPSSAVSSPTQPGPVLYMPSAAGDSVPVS
Method: RNA Bind-n-Seq
Molecule type: RNA
Sample: in vitro
Concentration: not given
Setting: RNA with constant flanks, human and mouse sites, ends assumed
Baseline: input RNA pool
Reading: higher = stronger binding
Constant ends, left off below: GGGAGUUCUACAGUCCGACGAUC … CAACAGAGGAUUGAGCAUCA
Sequence | bound/input enrichment
UCCCUAAAGAUAAUUGGAAGACUUCAUUGGAUUGAUAGAGAGAAACUGCGUAAUUUCAUUUUAGCAUGUCAAGAUGAAGAAACGGGGGGAUUUGCAGACAGGCCAGGAGAUAUGGUGGAU | 0.702 ratio
CAGACAGAAGUAGUGAUCCGAGACAUAGAUGAGAGGGCCAUGGAGCUCCUGAUUGACUUUGCAUAUACCUCCCAGAUCACUGUGGAAGAGGGCAAUGUUCAGACUCUCUUGCCUGCUGCU | 0.255 ratio
UCUGAGGAUACCACUGAAGAGACAUUAAAGGAGUCAUUUGACGGCUCCGUUCGGGCAAGGAUAGUUACUGACCGGGAAACUGGGUCCUCCAAAGGGUUUGGUUUUGUAGACUUCAACAGU | 0.247 ratio
GCAAUCAAAAGAUUUAGUAGCAUAAAUGACAGGUCUCUGCUCCCUGCUUUAUCUUGUGUCCAGACAGCCCUGCUUCAUCUUUUGGAUAUGGGCUGGGAACCCAGUGAUCUUGCCUUCUUU | 0.147 ratio
GAAACAAGAUGGCGGGUUCGUGGUGAGAAGCCGUCAAGCAGGAGUAGAAAUUGGUAUGCUUAGAAGCAGAUUCUAAAAGCAGUUUCUCUUCAGAACAUCUUUUUUCAUACCACUUGAUAA | 0.224 ratio
AGCAGGAAGAACGUGCUUGGCCACAUGCAGCAGGGUGGAAGCCCAACUCCCUUUGACAGGAAUUUUGCCACUAAGAUGGGUGCUAAGGCUAUGAACUGGAUGUCUGGGAAAAUCAAGGAG | 0.236 ratio

Block 6
Target: Histone acetyltransferase KAT6A, winged helix 2, GST fusion (KAT6A, Homo sapiens, UniProt Q92794, residues 85-181)
Method: protein binding microarray
Molecule type: double-stranded DNA, one strand shown
Sample: in vitro
Concentration: not given
Setting: 8-mer, flanks averaged, mean of 2 arrays, mostly near background
Baseline: not given
Reading: higher = stronger binding
Residues (chain): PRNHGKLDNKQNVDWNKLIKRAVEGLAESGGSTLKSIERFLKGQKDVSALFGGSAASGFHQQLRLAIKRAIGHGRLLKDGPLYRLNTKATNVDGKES
Sequence | E-score
GTCCGCAA | -0.00342
ATGTGAAC | -0.172
TAATTCGA | -0.0229
GAGTAGGA | -0.0555
CGTGAGAA | 0.101
ATGTCCCA | -0.0422
GCGTGAGC | 0.138
AGAAGCGG | 0.0139
ATATAGGA | -0.0439
CATCCGTA | 0.0139
AGTTTGGG | 0.2
CTTTGGAA | -0.0298
ATGATCGC | -0.0982
CGAAGAAC | 0.0955
CGCGCACC | 0.206
ACCGAGGT | 0.0193
AAGTGTAA | -0.333
CGGACCTA | 0.0626
CCCCTCGA | 0.125

Block 7
Target: Ras GTPase-activating protein-binding protein 1, full length (G3BP1, Homo sapiens, UniProt Q13283)
UniProt Q13283, sequence (whole entry, looked up): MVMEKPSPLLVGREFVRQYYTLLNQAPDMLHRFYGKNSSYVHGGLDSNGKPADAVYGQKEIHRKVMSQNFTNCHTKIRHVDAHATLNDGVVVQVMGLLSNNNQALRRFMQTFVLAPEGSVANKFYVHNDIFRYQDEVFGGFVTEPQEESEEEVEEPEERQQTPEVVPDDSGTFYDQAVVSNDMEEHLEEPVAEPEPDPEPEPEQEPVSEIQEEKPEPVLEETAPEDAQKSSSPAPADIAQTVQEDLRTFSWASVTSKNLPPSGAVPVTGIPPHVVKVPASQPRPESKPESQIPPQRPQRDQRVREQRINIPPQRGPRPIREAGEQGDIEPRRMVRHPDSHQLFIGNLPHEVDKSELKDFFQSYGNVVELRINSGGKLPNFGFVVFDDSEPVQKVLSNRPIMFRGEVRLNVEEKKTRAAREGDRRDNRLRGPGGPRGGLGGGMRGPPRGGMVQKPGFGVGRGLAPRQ
Method: RNA Bind-n-Seq
Molecule type: RNA
Sample: in vitro
Concentration: 200 nM
Setting: whole 134-nt RNA, ends assumed
With: 150 mM LiCl
Baseline: input library
Reading: higher = stronger binding
Library: 7-deaza-guanosine replaces G
Constant ends, left off below: GGGAGUUCUACAGUCCGACGAUC … UGGAAUUCUCGGGUGUCAAGG
Sequence | log2 enrichment
UCCUGUGCUACACAUCGUAUGUACCGAAUCGGGGCCCCCCGGCCCCCCGGGCCCCCCGGAAAGUAUUAUGUUACGCCGUUCGGAUCUGCA | 0.0708
CUCAAGUCCUGUGCUACACAUCGUAUGUACCGAAUCGGAAAGGAAAGGAAAGGGAAAGUAUUAUGUUACGCCGUUCGGAUCUGCACUUCC | -0.000245
CAAGUCCUGUGCUACACAUCGUAUGUACCGAAUCGGUUUGGAAAAAGGUUUUUGGAAAGUAUUAUGUUACGCCGUUCGGAUCUGCACUUC | -1.55
CCUCAAGUCCUGUGCUACACAUCGUAUGUACCGAAUCGGUUUUUGGUGGUGGAAAGUAUUAUGUUACGCCGUUCGGAUCUGCACUUCCAG | 0.067
CUCAAGUCCUGUGCUACACAUCGUAUGUACCGAAUCGGGAAAGGGUGGGUGGGAAAGUAUUAUGUUACGCCGUUCGGAUCUGCACUUCCA | 0.151
AAGUCCUGUGCUACACAUCGUAUGUACCGAAUCGGGUUUGGGAGGGAAAAAAAGGGAAAGUAUUAUGUUACGCCGUUCGGAUCUGCACUU | 0.272
AGUCCUGUGCUACACAUCGUAUGUACCGAAUCGGGAAAGGGUUUUUUUGGGAAAGGGAAAGUAUUAUGUUACGCCGUUCGGAUCUGCACU | -1.35
CCUGUGCUACACAUCGUAUGUACCGAAUCGGGGAAAAAAAGGGGAAAAAGGGGAAAGGGGAAAGUAUUAUGUUACGCCGUUCGGAUCUGC | 0.824
